Results of several laboratories.
Numbered parts are unrelated; each lists some results of a single study.
Chain of UniProt P42336 (whole entry, unmodified, looked up): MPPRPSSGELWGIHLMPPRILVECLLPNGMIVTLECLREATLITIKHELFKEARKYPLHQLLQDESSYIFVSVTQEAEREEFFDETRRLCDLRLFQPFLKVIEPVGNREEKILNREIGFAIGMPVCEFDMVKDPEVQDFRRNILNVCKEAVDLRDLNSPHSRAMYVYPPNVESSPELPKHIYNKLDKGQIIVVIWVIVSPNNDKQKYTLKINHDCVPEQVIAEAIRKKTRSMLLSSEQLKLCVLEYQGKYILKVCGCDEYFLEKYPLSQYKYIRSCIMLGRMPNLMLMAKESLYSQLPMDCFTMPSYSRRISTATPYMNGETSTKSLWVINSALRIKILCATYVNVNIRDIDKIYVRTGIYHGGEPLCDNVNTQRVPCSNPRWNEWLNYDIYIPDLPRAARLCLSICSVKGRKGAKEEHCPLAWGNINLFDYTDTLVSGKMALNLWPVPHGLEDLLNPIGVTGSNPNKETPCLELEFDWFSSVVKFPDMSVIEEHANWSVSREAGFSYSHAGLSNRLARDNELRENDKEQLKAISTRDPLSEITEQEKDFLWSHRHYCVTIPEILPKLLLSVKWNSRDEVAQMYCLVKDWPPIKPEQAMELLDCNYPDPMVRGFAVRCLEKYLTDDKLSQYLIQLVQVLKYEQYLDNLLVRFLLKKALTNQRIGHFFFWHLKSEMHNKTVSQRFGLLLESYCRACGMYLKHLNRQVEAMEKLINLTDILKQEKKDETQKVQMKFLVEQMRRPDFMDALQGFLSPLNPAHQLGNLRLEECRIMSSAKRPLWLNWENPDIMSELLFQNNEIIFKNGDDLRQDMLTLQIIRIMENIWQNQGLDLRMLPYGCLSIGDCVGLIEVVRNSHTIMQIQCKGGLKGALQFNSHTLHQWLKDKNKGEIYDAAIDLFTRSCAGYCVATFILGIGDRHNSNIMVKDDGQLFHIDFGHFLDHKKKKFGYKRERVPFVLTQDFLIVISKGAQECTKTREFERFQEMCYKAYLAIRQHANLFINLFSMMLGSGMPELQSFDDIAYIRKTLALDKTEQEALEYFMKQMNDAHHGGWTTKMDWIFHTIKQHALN
Chain of UniProt P36894 (whole entry, looked up): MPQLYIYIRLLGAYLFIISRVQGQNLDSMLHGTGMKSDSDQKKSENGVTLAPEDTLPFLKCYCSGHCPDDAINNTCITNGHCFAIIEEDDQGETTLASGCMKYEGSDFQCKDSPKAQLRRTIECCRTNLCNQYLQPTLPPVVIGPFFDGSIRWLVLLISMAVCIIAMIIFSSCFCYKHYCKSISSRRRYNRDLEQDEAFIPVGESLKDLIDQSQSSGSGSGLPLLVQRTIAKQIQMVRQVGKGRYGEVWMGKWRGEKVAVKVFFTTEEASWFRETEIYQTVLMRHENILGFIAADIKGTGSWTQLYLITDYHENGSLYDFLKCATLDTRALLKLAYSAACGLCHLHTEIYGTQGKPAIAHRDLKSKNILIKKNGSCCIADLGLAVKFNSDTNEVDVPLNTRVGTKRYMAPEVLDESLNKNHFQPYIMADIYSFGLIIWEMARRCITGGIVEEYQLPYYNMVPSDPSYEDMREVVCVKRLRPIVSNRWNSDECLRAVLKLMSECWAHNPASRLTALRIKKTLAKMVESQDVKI
Chain of UniProt Q14289 (whole entry, looked up): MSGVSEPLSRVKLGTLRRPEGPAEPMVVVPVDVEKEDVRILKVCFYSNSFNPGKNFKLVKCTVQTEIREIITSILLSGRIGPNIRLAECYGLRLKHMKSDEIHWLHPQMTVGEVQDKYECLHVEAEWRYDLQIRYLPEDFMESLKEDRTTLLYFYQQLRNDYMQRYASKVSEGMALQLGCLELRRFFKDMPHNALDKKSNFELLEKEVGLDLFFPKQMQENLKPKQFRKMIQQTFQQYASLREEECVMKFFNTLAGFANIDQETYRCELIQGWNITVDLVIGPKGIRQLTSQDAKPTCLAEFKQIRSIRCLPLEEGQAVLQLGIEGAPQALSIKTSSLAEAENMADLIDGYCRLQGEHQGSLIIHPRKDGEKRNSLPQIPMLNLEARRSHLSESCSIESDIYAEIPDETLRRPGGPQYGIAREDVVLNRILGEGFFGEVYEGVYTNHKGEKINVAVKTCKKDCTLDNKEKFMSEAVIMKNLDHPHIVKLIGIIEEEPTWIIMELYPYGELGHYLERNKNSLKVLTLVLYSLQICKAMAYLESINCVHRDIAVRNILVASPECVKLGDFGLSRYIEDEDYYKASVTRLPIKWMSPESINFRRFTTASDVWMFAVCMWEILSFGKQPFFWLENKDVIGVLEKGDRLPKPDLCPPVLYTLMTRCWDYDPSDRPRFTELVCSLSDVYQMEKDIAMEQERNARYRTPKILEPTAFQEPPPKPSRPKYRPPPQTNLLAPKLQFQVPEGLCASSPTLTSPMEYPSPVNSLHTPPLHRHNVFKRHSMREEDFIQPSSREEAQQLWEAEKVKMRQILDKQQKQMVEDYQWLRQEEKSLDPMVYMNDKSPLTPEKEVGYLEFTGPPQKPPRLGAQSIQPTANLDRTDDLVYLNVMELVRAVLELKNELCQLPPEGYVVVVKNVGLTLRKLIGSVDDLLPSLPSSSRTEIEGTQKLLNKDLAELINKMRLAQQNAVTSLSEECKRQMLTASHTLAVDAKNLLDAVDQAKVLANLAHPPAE
Chain of UniProt Q9P1W9 (whole entry, looked up): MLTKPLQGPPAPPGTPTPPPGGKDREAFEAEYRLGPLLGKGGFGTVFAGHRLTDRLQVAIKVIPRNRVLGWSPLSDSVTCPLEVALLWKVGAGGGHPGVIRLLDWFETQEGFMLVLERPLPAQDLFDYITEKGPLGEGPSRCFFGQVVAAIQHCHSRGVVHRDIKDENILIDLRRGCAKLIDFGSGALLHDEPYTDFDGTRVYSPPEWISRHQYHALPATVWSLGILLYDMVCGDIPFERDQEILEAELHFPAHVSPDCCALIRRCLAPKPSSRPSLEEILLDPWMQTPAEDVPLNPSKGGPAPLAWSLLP

Block 1 — method: competition with immobilised ligand; concentration: 0.1 µM; quantity: remaining binding
Structure (SMILES): CCOC(=O)c1cc2cc(-c3cc(C(=O)NCc4ccc(C(=O)O)cc4)nn3C)ccc2[nH]1
target = CDK2 (Homo sapiens, UniProt P24941); read-out = cell-free assay; result = 90%
target = PRKAA1 (Homo sapiens, UniProt Q13131); read-out = cell-free assay; result = 100%
target = Tyrosine-protein kinase ABL1, phosphorylated (ABL1, Homo sapiens, UniProt P00519, Q252H); read-out = cell-free assay; result = 81%
target = EPHA2 (Homo sapiens, UniProt P29317); read-out = cell-free assay; result = 100%
target = MAP2K5 (Homo sapiens, UniProt Q13163); read-out = cell-free assay; result = 82%
target = PIK3CA (Homo sapiens, UniProt P42336); read-out = cell-free assay; result = 92%
target = KIT (Homo sapiens, UniProt P10721); read-out = cell-free assay; result = 97%
target = Tyrosine-protein kinase ABL1, phosphorylated (ABL1, Homo sapiens, UniProt P00519, M351T); read-out = cell-free assay; result = 90%
target = PIK3CA (Homo sapiens, UniProt P42336, I800L); read-out = cell-free assay; result = 93%
target = DAPK3 (Homo sapiens, UniProt O43293); read-out = cell-free assay; result = 98%
target = ROCK1 (Homo sapiens, UniProt Q13464); read-out = cell-free assay; result = 78%
target = PIM2 (Homo sapiens, UniProt Q9P1W9); read-out = cell-free assay; result = 96%
target = SYK (Homo sapiens, UniProt P43405); read-out = cell-free assay; result = 100%
target = LATS2 (Homo sapiens, UniProt Q9NRM7); read-out = cell-free assay; result = 74%
target = Ribosomal protein S6 kinase alpha-2, N-terminal kinase domain (RPS6KA2, Homo sapiens, UniProt Q15349); read-out = cell-free assay; result = 100%
target = Tyrosine-protein kinase ABL1, non-phosphorylated (ABL1, Homo sapiens, UniProt P00519, F317I); read-out = binding; result = 80%
target = NTRK2 (Homo sapiens, UniProt Q16620); read-out = cell-free assay; result = 91%
target = STK26 (Homo sapiens, UniProt Q9P289); read-out = cell-free assay; result = 81%
target = FLT3 (Homo sapiens, UniProt P36888, ITD); read-out = cell-free assay; result = 98%
target = EPHA1 (Homo sapiens, UniProt P21709); read-out = cell-free assay; result = 100%
target = MAP3K7 (Homo sapiens, UniProt O43318); read-out = cell-free assay; result = 80%
target = PTK2B (Homo sapiens, UniProt Q14289); read-out = cell-free assay; result = 100%
target = PIK3CA (Homo sapiens, UniProt P42336, H1047L); read-out = cell-free assay; result = 100%
target = BMPR1A (Homo sapiens, UniProt P36894); read-out = binding; result = 87%
target = NIM1K (Homo sapiens, UniProt Q8IY84); read-out = cell-free assay; result = 79%

Block 2 — read-out: enzyme activity; mode: inhibitor; concentration: 0.5 µM; reference: control; quantity: remaining activity
Target: Receptor-type tyrosine-protein kinase FLT3 (FLT3, Homo sapiens, UniProt P36888)
SMILES = CCN(CC)CCNC(=O)c1c(C)[nH]c(/C=C2\C(=O)Nc3ccc(Cl)cc32)c1C; result = 0.782%
SMILES = Cc1cn(-c2cc(NC(=O)c3ccc(C)c(Nc4nccc(-c5cccnc5)n4)c3)cc(C(F)(F)F)c2)cn1; result = 77.4%
SMILES = Cn1nc2c3c(cccc31)C(=O)c1ccccc1-2; result = 59.3%
SMILES = COc1cc2ncnc(Nc3ccc(O)c(Br)c3)c2cc1OC; result = 6.34%
SMILES = O=C(NC(NC(=S)Nc1ccc(F)c([N+](=O)[O-])c1)C(Cl)(Cl)Cl)C(c1ccccc1)c1ccccc1 (centres unmarked); result = 99.3%
SMILES = c1ccc(-c2[nH]ncc2-c2ccnc3ccccc23)nc1; result = 91.2%
SMILES = CCN(CC)C(=O)c1ccc(Nc2nc(OCC3CCCCC3)c3[nH]cnc3n2)cc1; result = 10.3%
SMILES = Nc1cccc(-c2cc3c(Oc4cccc(O)c4)ncnc3[nH]2)c1; result = 30.7%
SMILES = N#Cc1c(NC(=O)c2cccc3ccccc23)sc2c1CCCC2; result = 111%
SMILES = O=C1c2ccccc2-c2n[nH]c3cccc1c23; result = 12.5%
SMILES = C[C@@H]1CCN(C(=O)CC#N)C[C@@H]1N(C)c1ncnc2[nH]ccc12; result = 77.9%
SMILES = c1ccc(-c2cnc(Nc3ccc(OCCN4CCCC4)cc3)s2)cc1; result = 3.1%
SMILES = O=C1C(Cl)=C(N2C(=O)CCC2=O)C(=O)c2ccccc21; result = 108%
SMILES = Ic1cccc(CSc2nnc(-c3ccncc3)o2)c1; result = 102%
SMILES = N#C/C(=C\c1ccc(O)c(O)c1)C(=O)NCc1ccccc1; result = 92.8%
SMILES = O=C(Nc1cccc(Nc2nccc(Nc3cccc(C(F)(F)F)c3)n2)c1)C1CC1; result = 73.1%
SMILES = CN(C)C[C@H]1CCn2c(c(C3=C(c4cn(C)c5ccccc45)C(=O)NC3=O)c3ccccc32)C1; result = 37.1%
SMILES = O=c1cc(-c2cccc3c2Sc2ccccc2S3)oc(N2CCOCC2)c1; result = 98.4%
SMILES = COc1cc2c(cc1OC)-c1[nH]nc(Nc3cccc(F)c3)c1C2; result = 25%
SMILES = Cc1cc2ncc(-c3ccccc3)nc2cc1C; result = 53.6%
SMILES = Cc1nc2cc3nc(-c4cccs4)cnc3cc2n1C; result = 27.5%
SMILES = COc1cc2ncnc(Nc3cccc(Cl)c3)c2cc1OC; result = 37.6%
SMILES = CCOc1nc(NC(=O)Cc2cc(OC)ccc2OC)cc(N)c1C#N; result = 102%

Block 3 — read-out: RNA clamping; method: fluorescence polarization; concentration: concentration not given; together with: FAM-labelled poly r(AG)8 RNA; reading: higher = more clamping; quantity: fluorescence polarization change
Target: Eukaryotic initiation factor 4A-I (EIF4A1, Homo sapiens, UniProt P60842)
Chain of UniProt P60842 (whole entry, looked up): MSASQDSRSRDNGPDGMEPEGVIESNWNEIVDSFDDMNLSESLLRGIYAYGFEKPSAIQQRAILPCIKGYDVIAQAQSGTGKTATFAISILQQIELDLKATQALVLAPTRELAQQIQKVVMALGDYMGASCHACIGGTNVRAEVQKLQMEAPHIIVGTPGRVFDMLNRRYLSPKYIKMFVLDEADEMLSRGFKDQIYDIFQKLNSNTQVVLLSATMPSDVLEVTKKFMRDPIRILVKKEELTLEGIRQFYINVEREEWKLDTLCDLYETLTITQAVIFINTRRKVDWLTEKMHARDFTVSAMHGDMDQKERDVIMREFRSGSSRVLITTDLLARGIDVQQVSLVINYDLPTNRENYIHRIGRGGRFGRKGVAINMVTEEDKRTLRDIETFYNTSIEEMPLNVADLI
Structure (SMILES) = CCCC1=N[C@@]2(O)[C@H](C(=O)OC)[C@@H](c3ccccc3)[C@]3(c4ccc(OC)cc4)Oc4cc(OC)cc(OC)c4[C@]23N1; result = 63.4 mP
Structure (SMILES) = C#CCCC1(CCOc2cc(OC)c3c(c2)O[C@@]2(c4ccc(OC)cc4)[C@H](c4ccccc4)[C@@H](C(=O)c4ccco4)[C@@H](O)[C@@]32O)N=N1; result = 1.4 mP
Structure (SMILES) = O[C@H]1C[C@@H](c2ccccc2)[C@]2(c3ccc(Cl)cc3)Oc3cc(OCCN4CCCC4)ccc3[C@]12O; result = 75.6 mP
Structure (SMILES) = COC(=O)C1=C(OS(=O)(=O)c2ccc(C)cc2)[C@@]2(O)c3c(OC)cc(OC)cc3O[C@@]2(c2ccc(OC)cc2)[C@@H]1c1ccccc1; result = 15.4 mP
Structure (SMILES) = COc1ccc([C@]23Oc4cc(OC)cc(OC)c4[C@](O)([C@H](C(=O)NCCCC(OC)OC)[C@H]2c2ccccc2)[C@@H]3O)cc1; result = 1.3 mP
Structure (SMILES) = COC(=O)C1=C(c2ccccc2)[C@]2(c3ccc(OC)cc3)Oc3cc(OC)cc(OC)c3[C@]2(O)C1=O; result = 14.2 mP
Structure (SMILES) = COc1ccc([C@@]23Oc4cc(OC)cc(OC)c4[C@]2(O)[C@H](O)[C@H](C(=O)NOCc2ccccc2)[C@H]3c2ccccc2)cc1; result = 10.4 mP
Structure (SMILES) = C#CCOc1cc(OC)c2c(c1)O[C@@]1(c3ccc(OC)cc3)[C@H](c3ccccc3)c3c(nc(-c4ccccc4)[nH]c3=O)[C@@]21O; result = 7.9 mP

Block 4 — read-out: enzyme activity; mode: inhibitor; concentration: 10 µM; quantity: inhibition
Target: Calcium/calmodulin-dependent protein kinase type II subunit alpha (CAMK2A, Homo sapiens, UniProt Q9UQM7)
Chain of UniProt Q9UQM7 (whole entry, looked up): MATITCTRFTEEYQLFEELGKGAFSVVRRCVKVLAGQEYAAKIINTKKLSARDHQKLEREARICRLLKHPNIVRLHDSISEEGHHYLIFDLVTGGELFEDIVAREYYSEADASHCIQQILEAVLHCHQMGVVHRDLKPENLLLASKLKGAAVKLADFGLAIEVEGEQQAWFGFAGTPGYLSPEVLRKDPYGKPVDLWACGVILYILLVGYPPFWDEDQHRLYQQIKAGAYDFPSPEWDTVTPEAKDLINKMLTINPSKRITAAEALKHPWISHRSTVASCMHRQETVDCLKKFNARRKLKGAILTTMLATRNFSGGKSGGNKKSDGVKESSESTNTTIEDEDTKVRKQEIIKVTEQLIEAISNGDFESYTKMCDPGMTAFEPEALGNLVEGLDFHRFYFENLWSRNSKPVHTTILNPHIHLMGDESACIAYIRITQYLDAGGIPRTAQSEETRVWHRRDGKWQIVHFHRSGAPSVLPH
SMILES = C[C@H](CCCC(C)(C)O)[C@H]1CC[C@H]2[C@@H]3CC=C4C[C@@H](O)CC[C@]4(C)[C@H]3CC[C@]12C; result = 10%
SMILES = CC(=O)O[C@@H](C[C@@H](C)C1=C2C[C@H](O)[C@H]3[C@@]4(C)CCC(=O)C(C)(C)[C@@H]4CC[C@]3(C)[C@@]2(C)CC1)[C@H]1OC1(C)C; result = 7%
SMILES = CNCC[C@@H](Oc1ccccc1C)c1ccccc1; result = -2%
SMILES = CC(C)(C)c1cc(O)cc(C(C)(C)C)c1; result = -14%
SMILES = CCc1cccc(C)c1O; result = 19%
SMILES = C[C@H]1CN(C[C@H](Cc2ccccc2)C(=O)NCC(=O)O)CC[C@@]1(C)c1cccc(O)c1; result = 8%
SMILES = COc1c(O)cc2occ(-c3ccc(O)cc3)c(=O)c2c1O; result = 48%
SMILES = c1cc2c(c3c1CC1c4cc5c(cc4CCN1C3)OCO5)OCO2 (racemic); result = -25%
SMILES = O=C(O)CCCCCCCCCCCCCCCCC(=O)O; result = -16%
SMILES = Cn1c([N+](=O)[O-])cnc1COC(N)=O; result = -8%
SMILES = COc1ccc2c(C)c3[n+](cc2c1OC)CCc1cc2c(cc1-3)OCO2; result = -16%
SMILES = CC(C)=CCc1c(-c2ccc(O)cc2O)oc2c([C@H]3C=C(C)C[C@@H](c4ccc(O)cc4O)[C@@H]3C(=O)c3ccc(O)cc3O)c(O)cc(O)c2c1=O; result = -12%

Some of these lines once more (block 2):
SMILES = Cn1nc2c3c(cccc31)C(=O)c1ccccc1-2; result = 59.3%
SMILES = Cc1cc2ncc(-c3ccccc3)nc2cc1C; result = 53.6%
SMILES = C[C@@H]1CCN(C(=O)CC#N)C[C@@H]1N(C)c1ncnc2[nH]ccc12; result = 77.9%
SMILES = O=C(NC(NC(=S)Nc1ccc(F)c([N+](=O)[O-])c1)C(Cl)(Cl)Cl)C(c1ccccc1)c1ccccc1 (centres unmarked); result = 99.3%
SMILES = O=C1C(Cl)=C(N2C(=O)CCC2=O)C(=O)c2ccccc21; result = 108%
SMILES = COc1cc2ncnc(Nc3cccc(Cl)c3)c2cc1OC; result = 37.6%
SMILES = COc1cc2c(cc1OC)-c1[nH]nc(Nc3cccc(F)c3)c1C2; result = 25%
SMILES = c1ccc(-c2[nH]ncc2-c2ccnc3ccccc23)nc1; result = 91.2%
SMILES = CCN(CC)C(=O)c1ccc(Nc2nc(OCC3CCCCC3)c3[nH]cnc3n2)cc1; result = 10.3%
SMILES = c1ccc(-c2cnc(Nc3ccc(OCCN4CCCC4)cc3)s2)cc1; result = 3.1%
